Results of several laboratories.
Every numbered part comes from another study and shows a few of its results, in no order.
UniProt Q8TD19, sequence (whole entry, looked up): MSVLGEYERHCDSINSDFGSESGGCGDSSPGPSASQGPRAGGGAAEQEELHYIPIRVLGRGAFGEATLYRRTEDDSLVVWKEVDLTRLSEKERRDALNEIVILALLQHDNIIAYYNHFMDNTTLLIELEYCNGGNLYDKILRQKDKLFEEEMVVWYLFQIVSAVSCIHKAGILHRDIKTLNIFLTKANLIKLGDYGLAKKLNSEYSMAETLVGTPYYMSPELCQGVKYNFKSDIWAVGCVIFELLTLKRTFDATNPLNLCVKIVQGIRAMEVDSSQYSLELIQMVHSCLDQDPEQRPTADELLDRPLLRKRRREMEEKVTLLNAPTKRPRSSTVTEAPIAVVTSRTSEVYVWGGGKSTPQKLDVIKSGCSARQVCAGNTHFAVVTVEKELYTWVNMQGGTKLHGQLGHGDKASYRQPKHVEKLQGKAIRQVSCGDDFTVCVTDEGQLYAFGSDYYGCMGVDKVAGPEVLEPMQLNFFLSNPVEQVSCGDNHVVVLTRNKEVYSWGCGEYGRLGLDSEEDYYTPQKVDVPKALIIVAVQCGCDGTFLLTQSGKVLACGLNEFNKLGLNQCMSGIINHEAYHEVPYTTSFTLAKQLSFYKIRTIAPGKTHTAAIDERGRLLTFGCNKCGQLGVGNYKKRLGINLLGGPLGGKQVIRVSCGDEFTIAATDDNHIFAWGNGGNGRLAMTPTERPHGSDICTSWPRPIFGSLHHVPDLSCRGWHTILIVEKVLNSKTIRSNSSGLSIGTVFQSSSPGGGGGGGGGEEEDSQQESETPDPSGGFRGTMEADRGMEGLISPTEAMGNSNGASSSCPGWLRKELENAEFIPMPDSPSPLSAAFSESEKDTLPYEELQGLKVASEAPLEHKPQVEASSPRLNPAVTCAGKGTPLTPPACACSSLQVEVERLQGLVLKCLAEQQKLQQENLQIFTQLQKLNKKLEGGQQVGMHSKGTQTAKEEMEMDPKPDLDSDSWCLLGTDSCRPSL
UniProt O75116, sequence (whole entry, looked up): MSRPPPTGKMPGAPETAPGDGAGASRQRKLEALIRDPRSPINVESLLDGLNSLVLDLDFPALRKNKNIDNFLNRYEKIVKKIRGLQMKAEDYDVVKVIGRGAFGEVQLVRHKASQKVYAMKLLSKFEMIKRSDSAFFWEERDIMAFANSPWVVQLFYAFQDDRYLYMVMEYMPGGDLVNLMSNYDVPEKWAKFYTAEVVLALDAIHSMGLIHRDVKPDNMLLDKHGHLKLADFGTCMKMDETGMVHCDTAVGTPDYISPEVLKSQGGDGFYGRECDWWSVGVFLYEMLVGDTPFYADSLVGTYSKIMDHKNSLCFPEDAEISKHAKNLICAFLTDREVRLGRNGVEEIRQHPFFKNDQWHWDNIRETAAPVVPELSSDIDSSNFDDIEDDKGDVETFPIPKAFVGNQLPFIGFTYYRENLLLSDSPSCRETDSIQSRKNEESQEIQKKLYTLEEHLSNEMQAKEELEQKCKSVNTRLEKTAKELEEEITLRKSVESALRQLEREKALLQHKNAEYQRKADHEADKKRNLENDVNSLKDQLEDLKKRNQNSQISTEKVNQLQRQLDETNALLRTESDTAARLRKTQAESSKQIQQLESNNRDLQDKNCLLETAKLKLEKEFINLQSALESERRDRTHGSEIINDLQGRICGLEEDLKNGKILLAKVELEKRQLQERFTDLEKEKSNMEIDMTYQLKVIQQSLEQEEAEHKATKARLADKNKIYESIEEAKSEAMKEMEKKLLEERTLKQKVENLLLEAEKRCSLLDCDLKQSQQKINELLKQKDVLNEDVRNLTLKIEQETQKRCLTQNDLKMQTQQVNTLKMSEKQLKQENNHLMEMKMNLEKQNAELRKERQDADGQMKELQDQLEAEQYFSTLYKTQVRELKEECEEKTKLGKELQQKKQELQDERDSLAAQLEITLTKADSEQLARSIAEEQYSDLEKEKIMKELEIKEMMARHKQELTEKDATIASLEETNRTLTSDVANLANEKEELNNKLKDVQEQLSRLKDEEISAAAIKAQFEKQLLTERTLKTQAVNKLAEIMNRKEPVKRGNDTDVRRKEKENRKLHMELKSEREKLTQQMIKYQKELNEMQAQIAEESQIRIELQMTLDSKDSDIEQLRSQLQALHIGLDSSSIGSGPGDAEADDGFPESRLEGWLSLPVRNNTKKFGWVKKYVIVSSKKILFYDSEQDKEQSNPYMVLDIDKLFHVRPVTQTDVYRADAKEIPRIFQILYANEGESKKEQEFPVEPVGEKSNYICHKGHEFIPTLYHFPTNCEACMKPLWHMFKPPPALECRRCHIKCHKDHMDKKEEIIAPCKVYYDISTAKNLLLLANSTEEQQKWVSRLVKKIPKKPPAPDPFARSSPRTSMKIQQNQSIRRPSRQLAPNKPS
UniProt P34947, sequence (whole entry, looked up): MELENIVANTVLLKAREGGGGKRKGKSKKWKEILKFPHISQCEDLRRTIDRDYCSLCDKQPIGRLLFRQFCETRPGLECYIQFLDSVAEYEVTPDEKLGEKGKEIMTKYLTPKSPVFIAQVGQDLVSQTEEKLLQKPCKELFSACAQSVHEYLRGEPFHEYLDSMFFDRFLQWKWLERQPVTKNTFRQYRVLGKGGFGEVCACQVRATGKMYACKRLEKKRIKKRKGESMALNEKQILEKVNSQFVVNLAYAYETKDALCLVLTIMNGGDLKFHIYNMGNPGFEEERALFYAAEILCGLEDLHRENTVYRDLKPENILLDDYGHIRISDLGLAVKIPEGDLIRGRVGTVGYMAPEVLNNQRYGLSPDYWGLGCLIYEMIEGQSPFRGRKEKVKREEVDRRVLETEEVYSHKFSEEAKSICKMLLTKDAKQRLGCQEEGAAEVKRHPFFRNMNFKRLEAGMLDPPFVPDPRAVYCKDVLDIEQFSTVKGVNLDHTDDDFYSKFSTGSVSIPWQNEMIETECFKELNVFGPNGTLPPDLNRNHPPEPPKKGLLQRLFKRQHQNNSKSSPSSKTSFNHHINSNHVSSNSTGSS

Series 1
SMILES: N/C(=N\[N+](=O)[O-])N/N=C\c1ccc(-c2cccc([N+](=O)[O-])c2)o1
Effect on: enzyme activity
Mode: inhibitor
Tested at: 0.5 µM
Relative to: control
| target | remaining activity [%] |
| --- | --- |
| Rho-associated protein kinase 2 (ROCK2, Homo sapiens, UniProt O75116) | 86.3 |
| G protein-coupled receptor kinase 5 (GRK5, Homo sapiens, UniProt P34947) | 123 |
| Cyclin-dependent kinase 2, with cyclin A (CDK2, Homo sapiens, UniProt P24941) | 106 |
| Serine/threonine-protein kinase Nek9 (NEK9, Homo sapiens, UniProt Q8TD19) | 91.8 |

Series 2
Target: Kappa-type opioid receptor (OPRK1, Homo sapiens, UniProt P41145)
UniProt P41145, sequence (whole entry, looked up): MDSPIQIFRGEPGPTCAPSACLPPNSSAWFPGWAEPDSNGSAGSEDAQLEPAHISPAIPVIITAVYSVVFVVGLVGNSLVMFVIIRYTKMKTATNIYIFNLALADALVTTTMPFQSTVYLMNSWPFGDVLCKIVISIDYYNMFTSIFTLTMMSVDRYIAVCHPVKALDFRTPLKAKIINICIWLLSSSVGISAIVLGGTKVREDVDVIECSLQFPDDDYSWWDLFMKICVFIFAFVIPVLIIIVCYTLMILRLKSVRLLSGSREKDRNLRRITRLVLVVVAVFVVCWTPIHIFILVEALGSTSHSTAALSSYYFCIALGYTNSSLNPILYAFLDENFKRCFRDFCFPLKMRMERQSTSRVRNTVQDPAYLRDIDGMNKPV
Effect on: ligand displacement
Tested at: 10 µM
| Structure (SMILES) | inhibition [%] |
| --- | --- |
| COc1ccc2cc(OCC3(C(=O)O)CN(C(=O)c4ccc(F)cc4)C3)ccc2c1 | 16.4 |
| CC1CCN(c2ccnc(NCc3cn(C)cn3)n2)CC1 | 36.6 |
| COc1cccc(NC(=O)c2nc3scc(CN(C)Cc4ccccc4)c3c(=O)[nH]2)c1 | 14.2 |
| CNC(=N)NCCC[C@H](NC(=O)[C@H](CC(C)C)NC(=O)NNC(=O)[C@H](Cc1ccccc1)NC(=O)[C@H](CO)NC(=O)[C@H](CC(N)=O)NC(=O)[C@@H](Cc1ccncc1)NC(=O)[C@H](N)Cc1ccc(O)cc1)C(=O)N[C@@H](Cc1ccccc1)C(N)=O | -6.31 |
| C[C@H](c1ccnc(Nc2nc3ccc(-c4cc(N(C)C)ncn4)cc3[nH]2)c1)N1CCN(C(=O)CC(F)(F)F)CC1 | 4.24 |
| O=C1NC(c2ccccn2)Sc2ccccc21 (centres unmarked) | 4.68 |
| NC(=O)c1ccc2nc(-c3ccc(C4(N)CCC4)cc3)c(-c3ccccc3)n2n1 | 25.4 |

Series 3
Organism: Sarcocystis neurona
Effect on: parasite growth
Tested at: 10 µM
Relative to: untreated
| Structure (SMILES) | log2 fold change |
| --- | --- |
| CCC(COC(=O)c1cc(OC)c(OC)c(OC)c1)(c1ccccc1)N(C)C.O=C(O)/C=C\C(=O)O (centres unmarked) | 0.43 |
| Cl.Oc1cc2c(cc1O)[C@H]1c3ccccc3CN[C@@H]1CC2 | 0.44 |
| COc1ccc2[nH]cc(CCN)c2c1 | 0.34 |
| CNC(=O)Oc1ccc2c(c1)[C@]1(C)CCN(C)[C@@H]1N2C.CNC(=O)Oc1ccc2c(c1)[C@]1(C)CCN(C)[C@@H]1N2C.O=S(=O)(O)O | 0.19 |
| CN1CC[C@@]23CCCC[C@@H]2[C@@H]1Cc1ccc(O)cc13.O=C(O)C(O)C(O)C(=O)O | 0.31 |

Series 4
Cell line: HEK-293T/ACE2
Tested at: concentration not given
Time: 16 (unit not given)
Relative to: vehicle
| Compound | viability [%] |
| --- | --- |
| CCCCN1CCCCC1C(=O)Nc1c(C)cccc1C (centres unmarked) | 89.6 |
| O=C1CCC(N2C(=O)c3ccccc3C2=O)C(=O)N1 (centres unmarked) | 99.6 |
| Nc1ccn([C@H]2CC[C@@H](CO)O2)c(=O)n1 | 95.1 |
| CCn1cc(C(=O)O)c(=O)c2cc(F)c(N3CCNC(C)C3)c(F)c21 (centres unmarked) | 100 |

A few entries again (series 1):
| target | remaining activity [%] |
| --- | --- |
| Rho-associated protein kinase 2 (ROCK2, Homo sapiens, UniProt O75116) | 86.3 |
